Published values gathered from unrelated publications.
Lines come from different studies, so protocols differ. Numbers after ± are the reported error.
UniProt P40926, sequence (whole entry, looked up): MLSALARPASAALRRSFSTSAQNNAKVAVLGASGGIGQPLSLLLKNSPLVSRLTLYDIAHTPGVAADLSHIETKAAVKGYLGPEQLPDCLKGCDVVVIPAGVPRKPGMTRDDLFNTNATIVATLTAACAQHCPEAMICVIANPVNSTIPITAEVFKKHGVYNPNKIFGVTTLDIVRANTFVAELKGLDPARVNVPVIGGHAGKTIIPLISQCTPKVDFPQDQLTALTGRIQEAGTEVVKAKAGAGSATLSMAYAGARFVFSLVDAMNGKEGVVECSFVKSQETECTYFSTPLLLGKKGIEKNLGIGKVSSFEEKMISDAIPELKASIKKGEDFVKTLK

`CC/C(=C(\c1ccccc1)c1ccc(OCCN(C)C)cc1)c1ccccc1`: “elimination rate constant” 2.15e-05 s⁻¹ (CD-1 mouse, male, plasma; intraperitoneal, 30 mg/kg).
The Constipation incidence of `Cc1cc(C)c(CNC(=O)c2cc(Cl)c3c(c2C)O[C@@](C)([C@H]2CC[C@H](N(C)C)CC2)O3)c(=O)[nH]1` is reported as 0% (human, relapsed/refractory NHL; concentration not given, all TEAEs, grade 5).
The blood chemistry of `O=C(O)CCCOc1ccc(F)cc1-c1cc(-c2ccccc2C(F)(F)F)n(-c2ccccc2)n1` is reported as 30.9 ± 5.1 mg/dL (measured: TG; Crl:CD(SD) rats, male, blood; iv, 25 µg/kg, 14 days).
`C=CC(=O)Nc1cc(Nc2nccc(Nc3cc(Cl)c(F)cc3C(C)(C)O)n2)c(OC)cc1N1CC[C@@H](N(C)C)C1`: “patients with nausea” 33.3% (human patients; oral, 100 mg, treatment-emergent adverse events).
`CC(=O)c1c(C)c2cnc(Nc3ccc(C4CCN(CCS(C)(=O)=O)CC4)cn3)nc2n(C2CCCC2)c1=O` — result for “elimination rate constant”: 3.33e-05 s⁻¹ (human, plasma; oral, 25 mg once daily, day 21, multiple doses).
`CN1CCN(c2ccc(Nc3nccc(-c4ccc([N+](=O)[O-])cc4)n3)cc2C(F)(F)F)CC1` has a toxicity of 79% (zebrafish embryos; 25 µM, 5 d).
With `C[C@]1(CO)Cc2ncn(-c3ccc(C#N)c(Cl)c3)c2C(=O)O1` the TEAE incidence was 25% (human; concentration not given, European food-effect part).
`COCC(=O)O[C@]1(CCN(C)CCCc2nc3ccccc3[nH]2)CCc2cc(F)ccc2[C@@H]1C(C)C` has an IC50 of 398 nM (Plasmodium falciparum; W2).
`C[C@@H]1NC(=O)[C@H](CCCCNC(=O)CO/N=C/C(=O)NCCCC[C@@H]2NC(=O)[C@@H](Cc3ccccc3)NC(=O)[C@H](CC(=O)O)NC(=O)CNC(=O)[C@H](CCCNC(=N)N)NC2=O)NC(=O)CNC(=O)[C@@H]2CCCN2C(=O)[C@H](CCCCNC(=O)CO/N=C/C(=O)NCCCC[C@@H]2NC(=O)[C@@H](Cc3ccccc3)NC(=O)[C@H](CC(=O)O)NC(=O)CNC(=O)[C@H](CCCNC(=N)N)NC2=O)NC(=O)[C@H](CCCCNC(=O)[C@H](CCCCN)NC(=O)[C@H](Cc2ccccc2)NC(=O)CNC(=O)CN2CCCNCCNCCCNCC2)NC(=O)[C@H](CCCCNC(=O)CO/N=C/C(=O)NCCCC[C@@H]2NC(=O)[C@@H](Cc3ccccc3)NC(=O)[C@H](CC(=O)O)NC(=O)CNC(=O)[C@H](CCCNC(=N)N)NC2=O)NC(=O)CNC(=O)[C@@H]2CCCN2C(=O)[C@H](CCCCNC(=O)CO/N=C/C(=O)NCCCC[C@@H]2NC(=O)[C@@H](Cc3ccccc3)NC(=O)[C@H](CC(=O)O)NC(=O)CNC(=O)[C@H](CCCNC(=N)N)NC2=O)NC1=O` [copper-64 labelled] gave a tissue uptake of 1.04 ± 0.05 %ID/g (normal mice, intestine; intravenous, 0.74 MBq, 24 h post-injection).
The relative abundance of `C[C@H]1CN(c2n[nH]c3nc(N[C@H]4CC[C@H](NS(=O)(=O)CCC(F)(F)F)CC4)ncc23)CCO1` is reported as 0.99 (MDH2 (Homo sapiens, UniProt P40926); inhibitor, Kinobeads competition profiling; 0.032 µM; relative to: vehicle).
`CC(=O)N(C)[C@H]1CCN(C(=O)c2cnc3c(c2)C[C@](C)(c2ccc(F)cc2)N3)C1` — result for “adverse event duration”: 11 days (measured: fractured finger; human; oral, dose not given, with: midazolam).
For `[Cl][212Pb][Cl]`, the tissue uptake was 0.39 ± 0.11 %ID/g (athymic mice, C4-2 xenograft, stomach; intravenous, 2 h, 212Pb-labelled).
Under “recovery in urine and faeces”, `CC(C)CC(=O)OC[C@H]1O[C@@](C#N)(c2ccc3c(N)ncnn23)[C@H](O)[C@@H]1O` is recorded as 0.0796% (Sprague-Dawley rat, male, urine and faeces; 80 mg/kg, time not given; relative to: dose).
`c1ccc2c(c1)-c1cccc3c1c-2cc1ccccc13` has a log K(PDMS-water) of 5.22 ± 0.03 (fresh water; 12 (unit not given), 20 °C, S30-2 sampler, 30 µm).
`CC(C)C[C@H](NC(=O)[C@H](CCC(N)=O)NC(=O)[C@H](CO)NC(=O)[C@H](CO)NC(=O)[C@H](CCCNC(=N)N)NC(=O)[C@H](CCCNC(=N)N)NC(=O)[C@H](CCCNC(=N)N)NC(=O)[C@H](CC(C)C)NC(=O)[C@H](Cc1c[nH]cn1)NC(=O)[C@@H](NC(=O)[C@H](CCCCN)NC(=O)[C@H](CCCNC(=N)N)NC(=O)[C@H](CCCNC(=N)N)NC(=O)[C@H](CCCNC(=N)N)NC(=O)[C@H](CCC(N)=O)NC(=O)[C@H](CCCNC(=N)N)NC(=O)[C@H](CCCNC(=N)N)NC(=O)[C@H](CCCCN)NC(=O)[C@H](CCCCN)NC(=O)[C@H](CCCNC(=N)N)NC(=O)CNC(=O)[C@@H](N)Cc1ccc(O)cc1)[C@@H](C)O)C(=O)N[C@@H](CCCCN)C(N)=O`: centre time “no effect” (open field test; rat; intra-CA1 bilateral, dose not given, 5 min).
For `CO[C@H]1C[C@@H]2CC[C@@H](C)[C@@](O)(O2)C(=O)C(=O)N2CCCC[C@H]2C(=O)O[C@H]([C@H](C)C[C@@H]2CC[C@@H](OC(=O)NCCOCCOCCOCCOCCOCCOCCOCCOCCC(=O)N3CCc4cc(Cn5nc(-c6ccc7oc(N)nc7c6)c6c(N)ncnc65)ccc4C3)[C@H](OC)C2)C[C@@H](O)[C@H](C)/C=C(\C)[C@@H](O)[C@@H](OC)C(=O)[C@H](C)C[C@H](C)/C=C/C=C/C=C/1C`, “any SAE incidence” read 16.7% (phase 1 dose escalation; advanced solid tumour patients; intravenous, 12 mg weekly, any grade).
For `Clc1cc(Cl)cc(-c2cc(Cl)ccc2Cl)c1`, the log K(PDMS-water) was 5.7 ± 0.04 (fresh water; 20 °C).
`C[C@]1(O)C[C@@](N)(c2ccc(-c3nc4n(c3-c3ccccc3)COc3ccncc3-4)cc2)C1` — result for “patients with grade ≥3 Fatigue TEAE”: 11.1% (human, advanced or metastatic solid tumours; once daily, dose escalation total).
`N=c1c2c(-c3ccccc3)c(-c3ccccc3)n(Cc3ccccc3)c2ncn1[C@H]1CC[C@H](O)CC1`: “unchanged drug excreted in urine” less than 1% (Sprague-Dawley rat, male, bile-duct cannulated, urine; intravenous, 1 mg/kg, 0-48 h; relative to: dose).
For `COc1ccnc(C(=O)N[C@H]2COC(=O)[C@H](Cc3ccccc3)[C@@H](OC(=O)C(C)C)[C@H](C)OC2=O)c1OCOC(=O)C(C)C`, the KFoc was 2250 mL/g (soil adsorption; soil; pH 5.9, organic carbon 0.9 %).
`C[C@@H](NC(=O)N1C(=O)[C@H](Cc2ccnc(N)c2)[C@H]1C(=O)O)C1CCCCC1` — result for “incidence of decreased neutrophil”: 0% (healthy adult Chinese volunteers; continuous intravenous infusion, 0.6 mg/kg/h, 5-day infusion, CTCAE 5.0 grading).
`Cc1ncnc2c1ccn2[C@@H]1C[C@H](Oc2cc(C(F)F)c(F)c3c2CNCC3)[C@@H](O)[C@H]1O` has a Nausea incidence of 11% (patients; any grade; relative to: patients).
`CCOc1cc(Oc2ccc(C(F)(F)F)cc2Cl)ccc1[N+](=O)[O-]` — result for “final body weight”: 94.6 ± 2.4 g (rat, female; 250 mg/kg, 4 days).
`NCCCC[C@@H]1NC(=O)[C@@H](Cc2c[nH]c3ccccc23)NC(=O)[C@H](c2ccccc2)NC(=O)[C@@H]2C[C@@H](OC(=O)NCCN)CN2C(=O)[C@H](Cc2ccccc2)NC(=O)[C@H](Cc2ccc(OCc3ccccc3)cc2)NC1=O`: “subjects with any adverse event” 100% (healthy human volunteers; 1950 µg twice daily).
The relative error of `O=C(O)CCC(CP(=O)(O)O)C(=O)O` (stereo not shown) is reported as -6.8% (rat, plasma; 8 µg/mL, 28 days, -80 °C, long-term stability; relative to: nominal concentration).
`CC(C)C[C@H](NC(=O)C[C@H](O)[C@H](CC(C)C)NC(=O)[C@H](Cc1c[nH]cn1)NC(=O)CNC(=O)[C@@H](NC(=O)[C@H](C)NC(=O)[C@H](Cc1c[nH]c2ccccc12)NC(=O)[C@H](CCC(N)=O)NC(=O)[C@@H](Cc1ccccc1)NC(=O)CCNC(=O)CCSc1nnc(NCCC(=O)NCCC(=O)NCCCC[C@H](NC(=O)N[C@@H](CCC(=O)O)C(=O)O)C(=O)O)c2c1CCC1C(CC2)C1COC(=O)NCCNC(=O)CC[C@H](C(=O)O)N1CCN(CC(=O)O)CCN(CC(=O)O)CC1)C(C)C)C(N)=O` (stereo partly shown) [gallium-68 labelled] gave a tissue uptake of 0.24 %ID/g (athymic NMRI nude mouse, intestine; intravenous, 533 pmol, 2 h).
`CN[C@@H](C)C(=O)N[C@H]1CN(S(=O)(=O)c2cccc(S(=O)(=O)N3CC[C@H]4CC[C@@H](C(=O)NC(c5ccccc5)c5ccccc5)N4C(=O)[C@@H](NC(=O)[C@H](C)NC)C3)c2)CC[C@H]2CC[C@@H](C(=O)NC(c3ccccc3)c3ccccc3)N2C1=O` — result for “treatment-related ALT elevation incidence”: 0% (patients with advanced solid tumours; 20 mg, phase I monotherapy).
`CC(C)C[C@@H]1NC(=O)[C@H](CC(N)=O)NC(=O)[C@H](CCCNC(=N)N)NC(=O)[C@H]([C@@H](C)O)NC(=O)[C@@H]2CSSC[C@@H]3NC(=O)[C@H]([C@@H](C)O)NC(=O)CNC(=O)CNC(=O)[C@H](C(C)C)NC(=O)[C@@H]4CSSC[C@H](NC(=O)[C@H]([C@@H](C)O)NC(=O)[C@H](CSSC[C@H](NC(=O)[C@H](C(C)C)NC(=O)[C@@H]5CCCN5C(=O)[C@H](CC(C)C)NC1=O)C(=O)NCC(=O)N[C@@H](CCC(=O)O)C(=O)N[C@@H]([C@@H](C)O)C(=O)N4)NC(=O)CNC(=O)[C@@H]1CCCN1C(=O)[C@H]([C@@H](C)O)NC(=O)[C@H](CC(N)=O)NC3=O)C(=O)N[C@@H](CO)C(=O)N[C@@H](Cc1c[nH]c3ccccc13)C(=O)N1CCC[C@H]1C(=O)N[C@@H](C(C)C)C(=O)N2` gave a remaining peptide of 98.1 ± 1.4% (HPLC; ammonium bicarbonate; 180 µM, 14 days, pH 9.0, 25 °C, deamidation stability).
Under “grade 3 Anorexia”, `COc1cc2c(Oc3ccc4[nH]c(C)cc4c3F)ccnc2cc1OCC1(N)CC1` is recorded as 0% (paediatric recurrent refractory sarcoma; 8 mg).
`c1ccc2c(c1)c1cccc3ccc4cccc2c4c31` has a log K(PDMS-water) of 5.12 ± 0.02 (fresh water; 12 (unit not given), 20 °C, S100 sampler, 100 µm).
`N=C(N)NCCC[C@@H](NC(=O)[C@@H](N)Cc1ccccc1)C(=O)N[C@@H](Cc1ccccc1)C(=O)N[C@@H](CCCCN)C(N)=O` gave an AUC(0-inf) of 3330 ng·h/mL (early Huntington's disease patients, plasma; subcutaneous, 15 mg daily, day 7, median).

Some of these lines once more:
`CC/C(=C(\c1ccccc1)c1ccc(OCCN(C)C)cc1)c1ccccc1`: “elimination rate constant” 2.15e-05 s⁻¹ (CD-1 mouse, male, plasma; intraperitoneal, 30 mg/kg).
`c1ccc2c(c1)-c1cccc3c1c-2cc1ccccc13` has a log K(PDMS-water) of 5.22 ± 0.03 (fresh water; 12 (unit not given), 20 °C, S30-2 sampler, 30 µm).
`C[C@@H]1NC(=O)[C@H](CCCCNC(=O)CO/N=C/C(=O)NCCCC[C@@H]2NC(=O)[C@@H](Cc3ccccc3)NC(=O)[C@H](CC(=O)O)NC(=O)CNC(=O)[C@H](CCCNC(=N)N)NC2=O)NC(=O)CNC(=O)[C@@H]2CCCN2C(=O)[C@H](CCCCNC(=O)CO/N=C/C(=O)NCCCC[C@@H]2NC(=O)[C@@H](Cc3ccccc3)NC(=O)[C@H](CC(=O)O)NC(=O)CNC(=O)[C@H](CCCNC(=N)N)NC2=O)NC(=O)[C@H](CCCCNC(=O)[C@H](CCCCN)NC(=O)[C@H](Cc2ccccc2)NC(=O)CNC(=O)CN2CCCNCCNCCCNCC2)NC(=O)[C@H](CCCCNC(=O)CO/N=C/C(=O)NCCCC[C@@H]2NC(=O)[C@@H](Cc3ccccc3)NC(=O)[C@H](CC(=O)O)NC(=O)CNC(=O)[C@H](CCCNC(=N)N)NC2=O)NC(=O)CNC(=O)[C@@H]2CCCN2C(=O)[C@H](CCCCNC(=O)CO/N=C/C(=O)NCCCC[C@@H]2NC(=O)[C@@H](Cc3ccccc3)NC(=O)[C@H](CC(=O)O)NC(=O)CNC(=O)[C@H](CCCNC(=N)N)NC2=O)NC1=O` [copper-64 labelled] gave a tissue uptake of 1.04 ± 0.05 %ID/g (normal mice, intestine; intravenous, 0.74 MBq, 24 h post-injection).
With `C[C@]1(CO)Cc2ncn(-c3ccc(C#N)c(Cl)c3)c2C(=O)O1` the TEAE incidence was 25% (human; concentration not given, European food-effect part).
